Experimental data collected from several papers.
Numbered parts are unrelated; each lists some results of a single study. Positions count from the first letter of the parent shown.

Set 1 — method: RNA Bind-n-Seq; form: RNA; matrix: in vitro; tested at: 365 nM; relative to: no-protein control; direction: higher = stronger binding
Target: RNA binding protein fox-1 homolog 2, RRM domain, GST-SBP tag (RBFOX2, Homo sapiens, UniProt O43251-10, residues 100-194)
Setting: natural RNA segment, single round, ends assumed
Shared flanks, not repeated: GGGAGUUCUACAGUCCGACGAUC … UGGAAUUCUCGGGUGCCAA
Construct (chain): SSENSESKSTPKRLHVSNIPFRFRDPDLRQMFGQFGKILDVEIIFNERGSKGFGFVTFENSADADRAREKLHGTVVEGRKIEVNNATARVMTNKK
For `AUUACGAAAAUAUGCUACUCUGAUGUGUUAUGGUUCCUGAAUUUCUUUUCUUUCUCACCCUCUUUGACCCAGAUUUUAUAGAGCGAGUUUCUCAACCUCUGCACAGUUGA`, “RBNS enrichment (R)” read 0.691.
Under “RBNS enrichment (R)”, `CCCUGCCUCAAAAAAACAAGCAAAGCCGGGCGUGGUGGCGCACGCCUUUAAUCCCAGCACUUGGGAGGCAGAGGCAGGCGGAUUUCUGAGUUCCAGGCCAGCCUGGUCUA` is recorded as 0.314.
Under “RBNS enrichment (R)”, `GUGGCGGGGUCCGCUGCUGGUCUAAUUUGGACCCCCUGCCUCUCAGUGCCCCUGCCCUAGGGGUGUCUGUCUCCAGAGGGGAGGGACAAAUCCCCUACUGGGGCCAUUUC` is recorded as 0.454.
Under “RBNS enrichment (R)”, `GCAUUGCCAUUGGAGGCUCAAUUGACUGAAAUUACUUUAACAUUUUGGAAAUUGUUAUGUAUCACUAAAAGCAUGAAUUGGAACUGCACUGGAAGUCAAAUUCACUUAAA` is recorded as 5.73.
`AUGGCUAAAUGCUGAAGGUGGAGGUUCAGCAUGUCUGACAACCCGGAUGUACACCGUAGAAGUGCCAUUCAGUUGUACACACAUCUUUCCUCCUCCACAUCAUCCCCACG`: “RBNS enrichment (R)” 0.313.
For `CUUGUGUUGGGAGGAGGAUGUCCUCACUCGGAUGCCGACACGGGAGACAAUGGGAUGAAAGGCUUCAGUGUGGUCUGAGAGAGGCCGAAGUCCUUUUGCCUGCCGGGGAG`, “RBNS enrichment (R)” read 1.12.
`CUGCUAAGUAGGGUGGACUGGGCAAAGCAAUGAACUUUCAGGCAUUCGAGCUACUUCAUCUGCAUAAGGAAAUCCUCAAUGUAGGUGAGUCAGGUCUGUUCCCCAACUGA` — result for “RBNS enrichment (R)”: 0.266.
`CCUCUAAUAUCCACACAUUCCAUCCCCCCAGCCCCAUGUAGAUGGUGGGGUUAAGACCAUUCUUCAGAUGUGGAAAUGAAGGCUCUGGGAGACCACAGGACAUGCCCAAG`: “RBNS enrichment (R)” 0.876.
`CUACACAUUUUGCCUUUGGGGAUCUGGUUGGGGUUUUGGGUUUUUUGUUGUUGUUGUUUAUUUGUUAUUUUAAAGGUAAAUUGCACUUUUAAAAAAAUAAUUGGUUGACU` — result for “RBNS enrichment (R)”: 0.897.
Under “RBNS enrichment (R)”, `AGCAUUGUGUAAAUAAAUCUGAAUGUGUUUAACUUUGUACUGGUAAUUUUCUGUAUAUUUGGAAUAUUUGGGUUAAAAAUAAAACAGACUGGACUUUGUUACCUGACCUA` is recorded as 0.773.
`UACCUGUGAGGCUGACACCUGUUGCAGACUAUGGAGUGGUGAGAUUUGGGAAAGUUGGGCUAUAUGUUUGCAGGGACUUAAAAAGGUAGGUUCAGAACAGUAUUCUCAGU`: “RBNS enrichment (R)” 0.993.
`UCUGUAUGCACUGAAAAACGUCGGGUUCUGGGUCUACAAAGCCCCUGCUGCCUGUGUUUGAGGUCUGGAAGGGAGAUUUGAGGAAAGAGAGAGAGAGAGAGAGAGAGAGA`: “RBNS enrichment (R)” 1.29.

Set 2 — method: protein-binding microarray; form: double-stranded DNA, one strand shown; matrix: in vitro; tested at: 250 nM; setting: 60-bp whole probe; with: salmon DNA 0.4 mg/ml; relative to: random background probes; direction: higher = stronger binding; shared flanks, not repeated: GCCTAGCAC … GTCTTGATTCGCTTGACGCTGCTG
Target: Interferon regulatory factor 5, full length, phosphomimetic (IRF5, Homo sapiens, UniProt Q13568-2, residues 1-514, K96S/S451D/S453D/S456D/S462D)
`ATAGGACTGGGGTATCGGTTAGTGCTA` has a log fluorescence of 2.21 z-score.
`TCATTTTTAGATTTTTTACTGTGCTAG` gave a log fluorescence of 1.04 z-score.
`TCATATTTACTCTCTACAACTGTGCTA` has a log fluorescence of 1.17 z-score.
For `TTAGGACTGGGGACTGGGCTAGTGCTA`, the log fluorescence was -0.582 z-score.
With `TCCAATTACCTTTTCACTTTGTGCTAG` the log fluorescence was 1.54 z-score.
For `TGGGACCAGCACAGACAGTCGTGCTAG`, the log fluorescence was -0.565 z-score.
`GACGGACTGGGCTTTCGGGACGTGCTA` has a log fluorescence of 1.22 z-score.
`TCAAATATTCATTTTATACTGTGCTAG` gave a log fluorescence of 1.09 z-score.
With `CTAGATATCGGGTATCGATTAGTGCTA` the log fluorescence was 5.68 z-score.
`TTAGATTTCGGGCATCGATTAGTGCTA` gave a log fluorescence of 3.9 z-score.
`GACGGCCTGCTACTGCTGACGTGCTAG` gave a log fluorescence of -0.618 z-score.
With `TTAGGTTTCGGGTTTCGTTTAGTGCTA` the log fluorescence was 8.99 z-score.
`TCAAGTTTCTATTTTCTACTGTGCTAG` gave a log fluorescence of 4.3 z-score.
For `GACGATATCAGACTGTAGACGTGCTAG`, the log fluorescence was 0.38 z-score.
With `TCATCTAGGTTTTCTGGAACTGTGCTA` the log fluorescence was 0.0789 z-score.
With `GACAATCTCAGTTTCGAGACGTGCTAG` the log fluorescence was 5.56 z-score.
For `GAGGATTTCAGTTCCGAGACGTGCTAG`, the log fluorescence was 0.666 z-score.
`TTAGGTCTCGGTCTTGGTTAGTGCTAG` has a log fluorescence of 0.529 z-score.
The log fluorescence of `GACGATCTAAGTTTCGAGACGTGCTAG` is reported as 4 z-score.
`TTAGTTTTCCTTTTCCTTTAGTGCTAG` has a log fluorescence of 2.86 z-score.

Set 3 — method: DHFR PCA, deep sequencing; matrix: yeast; with: (+)-ABA 710 µM; relative to: wild-type fitted maximum; direction: higher = stronger binding
Target: ABI1, truncated, D143A, DHFR fusion (Arabidopsis thaliana)
Setting: methotrexate growth selection, single substitutions
Parent: PYL1, truncated, DHFR fusion (Arabidopsis thaliana); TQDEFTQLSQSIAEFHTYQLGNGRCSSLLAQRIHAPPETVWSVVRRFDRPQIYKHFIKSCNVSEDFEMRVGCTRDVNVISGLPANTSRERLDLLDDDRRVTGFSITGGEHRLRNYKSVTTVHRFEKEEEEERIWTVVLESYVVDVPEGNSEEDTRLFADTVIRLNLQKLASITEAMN
`Q31K`: “relative binding score” 102%.
`I105F` — result for “relative binding score”: 3.58%.
Under “relative binding score”, `V143H` is recorded as -7.99%.
`E131P`: “relative binding score” 110%.
For `R69S`, “relative binding score” read 99%.
`N85Y` — result for “relative binding score”: 104%.
`E139T`: “relative binding score” 101%.
Under “relative binding score”, `Y53N` is recorded as 45.9%.
Under “relative binding score”, `R88D` is recorded as 82.4%.
For `E89G`, “relative binding score” read 11.3%.
Under “relative binding score”, `S104H` is recorded as 85.2%.
Under “relative binding score”, `E147P` is recorded as 98.9%.
`F47E`: “relative binding score” -4.09%.
Under “relative binding score”, `E64R` is recorded as 102%.
`P37R`: “relative binding score” 81.6%.
Under “relative binding score”, `L29A` is recorded as 89.3%.
`D153T` — result for “relative binding score”: 68.8%.
`L169M` — result for “relative binding score”: 78.2%.
Under “relative binding score”, `C72K` is recorded as 87.9%.
`L112K`: “relative binding score” -13.7%.

Set 4 — target: CCNA1, cyclin fold, Cln2 fusion (human); method: yeast growth competition, sequencing; matrix: yeast; setting: weak parent motif; relative to: not given; direction: higher = stronger binding
Parent: RP1L1 docking peptide (human); TLGLGPLSFTLED; partner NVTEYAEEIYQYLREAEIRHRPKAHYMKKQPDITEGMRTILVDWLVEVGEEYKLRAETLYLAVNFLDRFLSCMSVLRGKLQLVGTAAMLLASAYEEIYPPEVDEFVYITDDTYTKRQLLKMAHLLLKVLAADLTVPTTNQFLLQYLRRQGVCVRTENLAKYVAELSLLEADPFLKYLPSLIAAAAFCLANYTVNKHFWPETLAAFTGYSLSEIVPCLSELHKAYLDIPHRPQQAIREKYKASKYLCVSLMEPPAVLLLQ
For `TLGLGALSFTLED [P6A]`, “normalised enrichment score” read -0.498.
For `TLGLGPLSFTLEA [D13A]`, “normalised enrichment score” read -0.583.
`TLGAGPLSFTLED [L4A]` — result for “normalised enrichment score”: -0.241.
For `TLALGPLSFTLED [G3A]`, “normalised enrichment score” read -0.689.
Under “normalised enrichment score”, `TLGLGPLSFALED [T10A]` is recorded as -0.556.
`TLGLGPLAFTLED [S8A]` — result for “normalised enrichment score”: -0.493.
`TLGLGPASFTLED [L7A]`: “normalised enrichment score” -0.287.

Set 5 — target: OGT, full length, His-tagged (human); method: phage display, sequencing; matrix: in vitro; tested at: 1 µg OGT; relative to: input library; direction: higher = stronger binding; parent: peptide; VAYPNSYMPKYQIST
Setting: single substitutions, 15-mer displayed peptide, unchanged parent 6.14
`A2S` has a fold enrichment of 4.82 fold.
With `I13A` the fold enrichment was 0.57 fold.
With `N5R` the fold enrichment was 3.64 fold.
`Y11A` has a fold enrichment of 0.723 fold.
With `A2Q` the fold enrichment was 6.02 fold.
The fold enrichment of `N5E` is reported as 6.22 fold.
`M8E` has a fold enrichment of 1.05 fold.
The fold enrichment of `P4M` is reported as 1.7 fold.
`P4W` has a fold enrichment of 5.72 fold.
The fold enrichment of `Y3G` is reported as 6.08 fold.
`V1W` has a fold enrichment of 7.09 fold.
With `M8V` the fold enrichment was 1.42 fold.
For `S6N`, the fold enrichment was 4.31 fold.
